Measured values collected from several papers.
Protocols differ between the studies behind these lines. “And” joins repeats or separate records; there may be more than shown. Numbers after ± are the reported error.

CCN(CC)CC(=O)Nc1cccc(-n2cc(-c3ccc4ccc(-c5cn(-c6cccc(NC(=O)CN(CC)CC)c6)nn5)cc4c3)nn2)c1
fold regulation (RCC4; PCR angiogenesis array, item: NOS3; 5 x IC50, 2 h, normoxia; relative to: untreated): 1.02

[BH3-][P+]1(c2ccccc2)CCCCC1
necrotic cells (HaCaT; annexin V/PI flow cytometry; IC50, 72 h): 0.05%

O=S(=O)(N[C@H]1CCO[C@@H](C2c3ccc(F)cc3CCc3cc(F)ccc32)C1)c1ccc(OC(F)(F)F)cc1
Bad phosphorylation (D341; immunoblot; concentration not given, 72 h): decreased

Cc1cc(Cl)cc(-c2ccnc3cc(CN4C(=O)C5C(C4=O)C5(C)C)sc23)c1C[C@@H]1CNCCO1 (stereo partly drawn)
cells in G2/M phase (CHP-212 resistant cells (pooled); PI flow cytometry; 0.3 µM, 24 h): 11.9% and 14.6% and 9.94%

O=C(C[Se]C(=O)c1ccccc1Nc1cccc(C(F)(F)F)c1)Nc1cccc(C(F)(F)F)c1
TGI (NCI60 NSCLC subpanel mean; cell growth): 3.4 µM

O=C(CCC(F)(F)F)Nc1ccc([C@H]2[C@@H](F)[C@@H](F)C[C@@H](F)[C@H]2F)cc1
hepatic clearance (liver microsome stability; human liver microsomes; 1 µM, without NADPH): 14 mL/min/kg

CC12CCCC(NS(=O)(=O)c3ccccc3N)(C1)C1CC(C)(C)C1CC2 (stereo not drawn)
inhibition (HT-29; cell growth or viability, CCK-8; 50 µM): 100%

C[C@@H]1CC[C@@H]([C@](O)(COCc2ccccc2)Cn2cnc3ccccc32)[C@H](OCc2ccccc2)C1
inhibition (A2780; cell growth or viability, MTT; 30 µM, 72 h): 98.8%

N#Cc1cccc(-c2ccc([C@H]3[C@@H](F)[C@@H](F)C[C@@H](F)[C@H]3F)cc2)c1
hepatic clearance (liver microsome stability; human liver microsomes; 1 µM, without NADPH): 3.9 mL/min/kg

CNS(=O)(=O)Nc1nccc(Cc2c(C)c3ccc(Oc4ncccc4F)cc3oc2=O)c1F
IC50 (COR-L47; cell viability; 7 days): > 1 µM

CCN(C(=O)c1cc(F)ccc1Oc1nncnc1N1CCC2(C1)CN([C@H](CCCN(C)CCOC)C(C)C)C2)C(C)C
GI50 (EJ-28; cell growth or viability; 72 h): > 10 µM

Cc1ncsc1-c1ccc(C(C)NC(=O)C2CC(O)CN2C(=O)C(NC(=O)CCCCCCCCCCN2CCCC(Nc3ncc(Cl)c(Nc4ccccc4S(=O)(=O)C(C)C)n3)C2)C(C)(C)C)cc1 (stereo not drawn)
log2 fold change (22Rv1; RNA-seq, item: ZNF470 mRNA; concentration not given; relative to: DMSO): -1.74

CC(CCC(=O)OCc1cccc(CN(C(=O)OCc2ccc(B3OC(C)(C)C(C)(C)O3)cc2)[c-]2cccc2)c1)C1CCC2C3C(O)CC4CC(O)CCC4(C)C3CC(O)C12C.[Fe+2].c1cc[cH-]c1 (stereo not drawn)
mRNA level (A2780; qPCR, item: CHOP; 5 µM, 24 h, unit not given; relative to: untreated): 1100 ± 487

CC[C@H](C)[C@H](NC(=O)[C@H](CCCC(=O)O)NC(=O)[C@H](CC(=O)O)NC(C)=O)C(=O)N[C@@H](CC(=O)O)C(=O)COC(=O)c1c(C)cccc1C
cell lysis (THP-1 cells, LPS-primed; pyroptosis, LDH release; 25 µM, LPS 1 µg/mL, 4 h, with: nigericin 5 µM, 2 h): 98.1% and 73.8%

COC1CCN(C(=O)/C=C/c2nn(Cc3cccc(C(F)(F)F)c3)c3nc(N4CCOCC4)ncc23)CC1
EC50 (OE33; cell growth or viability, resazurin; 5 days): > 30 µM

CN1CCCNC(=O)c2cccc(c2)C(=O)NCCCN(C)CCCNc2cccc3c2C(=O)c2cccc(c2C3=O)NCCC1
log2 fold change (SAS; RNA-Seq, item: TCEA2 mRNA; 1 µM, 6 h; relative to: untreated cells): 0.893

CC12CCCC(n3cc(C(=O)N4CC(N)C4)nn3)(C1)C1CC(C)(C)C1CC2 (stereo not drawn)
inhibition (HT-29; cell growth or viability, CCK-8; 50 µM): 84.1%

CCC(=CCc1c(O)cc2c(c1O)C(=O)CC(c1c(O)cccc1OC)O2)CC (stereo not drawn)
inhibition (HeLa; cell growth or viability, MTT; 0.781 µM, 48 h): 0.771%

Excerpt of the above:
CCC(=CCc1c(O)cc2c(c1O)C(=O)CC(c1c(O)cccc1OC)O2)CC (stereo not drawn)
inhibition (HeLa; cell growth or viability, MTT; 0.781 µM, 48 h): 0.771%

O=C(C[Se]C(=O)c1ccccc1Nc1cccc(C(F)(F)F)c1)Nc1cccc(C(F)(F)F)c1
TGI (NCI60 NSCLC subpanel mean; cell growth): 3.4 µM
